Experimental data pooled from the literature.
Each line is one published result; not all experiments were run side by side. ± marks the error that the study gave.

Compound = CC[C@H](C)C(=O)O[C@H]1C[C@H](O)C=C2C=C[C@H](C)[C@H](CC[C@@H](O)C[C@@H](O)CC(=O)O)[C@H]21; assay = cytochrome c release, ELISA; system = BALB/cByJ female mouse liver mitochondria; conditions = 30 min; scale = reference: alamethicin maximal release; measurement = EC20; value = > 200 µM
Compound = CCN1C(=O)CNc2ncc(-c3ccc(-c4nc[nH]n4)nc3C)nc21; system = human, plasma; conditions = oral, 10 mg twice daily, multiple doses; measurement = AUC(0-24h); value = 766 ng·h/mL
Compound = CS(=O)(=O)n1cc2c(n1)CN([C@H]1CO[C@H](c3cc(F)ccc3F)[C@@H](N)C1)C2; system = healthy Japanese men, plasma; conditions = oral, 10 mg once weekly, day 1; measurement = Ctrough; value = 10.4 nM
Compound = C[C@]12CC[C@@H]3c4ccc(O)cc4CC[C@H]3[C@@H]1C[C@@H](O)[C@@H]2O; assay = GC-MS; system = breast cancer women on NSAI, serum; conditions = vaginal, 0.03 mg daily, 8 h, day 28; measurement = minimum serum concentration; value = 0 ng/mL
Compound = Cn1c(=O)c2c(ncn2C)n(C)c1=O; system = human, fasted baseline, cerebrospinal fluid; measurement = mean concentration; value = 1350 ± 612 nM
Compound = Nc1nc2ncc(CNc3ccc(C(=O)N[C@@H](CCC(=O)O)C(=O)O)cc3)nc2c(=O)[nH]1; assay = cytochrome c release, ELISA; system = BALB/cByJ female mouse liver mitochondria; conditions = 30 min; scale = reference: alamethicin maximal release; measurement = EC20; value = > 400 µM
Compound = O=C(c1cccnc1-c1ccncc1)N1CCC(O)(Cc2ccccc2)CC1; system = healthy human, plasma; conditions = oral, 300 mg once daily, day 1, arithmetic mean; measurement = AUCinf; value = 2040 ng·h/mL
Compound = CC(C)(C)NC(=O)[C@@H]1C[C@@H]2CCCC[C@@H]2CN1C[C@@H](O)[C@H](Cc1ccccc1)NC(=O)[C@H](CC(N)=O)NC(=O)c1ccc2ccccc2n1; assay = cytochrome c release, ELISA; system = BALB/cByJ female mouse liver mitochondria; conditions = 30 min; scale = reference: alamethicin maximal release; measurement = EC20; value = > 400 µM
Compound = Cn1c(-c2ccc(C(N)=O)cc2F)nnc1C(C)(C)Oc1c(F)cc(Cl)cc1F; system = young non-Japanese humans, plasma; conditions = oral, 2 mg, day 1, single dose; measurement = median Cmax; value = 0.286 ng/mL
Compound = CC[C@H](C)[C@H](NC(=O)[C@H](CS)NC(=O)[C@H](CCCNC(=N)N)NC(=O)[C@H](CCCNC(=N)N)NC(=O)[C@H](CC(N)=O)NC(=O)[C@H](CCCNC(=N)N)NC(=O)[C@H](CS)NC(=O)[C@@H](NC(=O)[C@@H](NC(=O)[C@@H](NC(=O)[C@H](CS)NC(=O)[C@H](CCCCN)NC(=O)[C@@H](N)CCCNC(=N)N)C(C)C)[C@@H](C)CC)C(C)C)C(=O)N[C@H](C(=O)N[C@@H](CC(C)C)C(=O)N[C@@H](CS)C(=O)N[C@@H](CCCNC(=N)N)C(=O)O)[C@@H](C)CC; assay = LC-MS; system = PBS; conditions = 0.1 mg/mL; measurement = single disulfide form; value = 0%
Compound = O=C(Nc1ccc(N2C(=O)[C@@H]3[C@H](C2=O)[C@@H]2C=C[C@H]3C2)c(Cl)c1)c1ccccn1; system = rat, hepatic portal plasma; conditions = oral, 10 mg/kg; measurement = AUC(0-6 h); value = 0.848 µM·h
Compound = CN[C@H](CC(C)C)C(=O)N[C@H]1C(=O)N[C@@H](CC(N)=O)C(=O)N[C@H]2C(=O)N[C@H]3C(=O)N[C@H](C(=O)N[C@H](C(=O)O)c4cc(O)cc(O)c4-c4cc3ccc4O)[C@H](O)c3ccc(c(Cl)c3)Oc3cc2cc(c3O[C@@H]2O[C@H](CO)[C@@H](O)[C@H](O)[C@H]2O[C@H]2C[C@](C)(N)[C@H](O)[C@H](C)O2)Oc2ccc(cc2Cl)[C@H]1O; system = New Zealand White rabbit; conditions = intraosseous, 30 mg/kg; scale = reference: intravenous dosing; measurement = serum drug concentration; value = decreased
Compound = CC(=O)N[C@H](CSSC[C@H](N)C(=O)O)C(=O)N[C@H](C)C(=O)N[C@H](CCCNC(=N)N)C(=O)N[C@H](CCCNC(=N)N)C(=O)N[C@H](CCCNC(=N)N)C(=O)N[C@H](C)C(=O)N[C@H](CCCNC(=N)N)C(N)=O; system = human whole blood; scale = reference: SAPC formation over reverse; measurement = rate ratio; value = 18 fold
Compound = CCN1CCN(c2cc3c(cc2F)c(=O)c(C(=O)O)cn3C2CC2)CC1; system = broiler chickens Ross, plasma; conditions = intravenous and oral, population PK typical value; measurement = central Vd; value = 2.11 L
Compound = O=S(=O)(O)Oc1c[nH]c2ccccc12; system = human hemodialysis patients, plasma ultrafiltrate; conditions = pre-treatment; scale = reference: hemodialysis over normal subjects; measurement = free concentration ratio; value = 77
Compound = CCN(CC)CCNC(=O)c1c(C)[nH]c(/C=C2\C(=O)Nc3ccc(F)cc32)c1C; system = human, plasma; conditions = oral, 15 mg/m2, day 14; measurement = median trough plasma concentration; value = 29.7 ng/mL
